Measurements collected from several papers.
Each line is one published result; not all experiments were run side by side. ± gives the spread as reported.
4'-phosphopantetheinyl transferase PptT: 4'-phosphopantetheinyl transferase PptT (Mycobacterium tuberculosis, UniProt O33336)
Chain of UniProt O33336 (whole entry, looked up): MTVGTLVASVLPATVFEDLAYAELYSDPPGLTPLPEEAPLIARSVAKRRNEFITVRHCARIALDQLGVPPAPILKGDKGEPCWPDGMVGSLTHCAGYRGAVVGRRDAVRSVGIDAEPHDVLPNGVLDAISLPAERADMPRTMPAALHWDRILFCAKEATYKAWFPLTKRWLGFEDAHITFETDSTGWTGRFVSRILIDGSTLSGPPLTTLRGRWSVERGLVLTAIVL
Chain of UniProt P21554 (whole entry, unmodified, looked up): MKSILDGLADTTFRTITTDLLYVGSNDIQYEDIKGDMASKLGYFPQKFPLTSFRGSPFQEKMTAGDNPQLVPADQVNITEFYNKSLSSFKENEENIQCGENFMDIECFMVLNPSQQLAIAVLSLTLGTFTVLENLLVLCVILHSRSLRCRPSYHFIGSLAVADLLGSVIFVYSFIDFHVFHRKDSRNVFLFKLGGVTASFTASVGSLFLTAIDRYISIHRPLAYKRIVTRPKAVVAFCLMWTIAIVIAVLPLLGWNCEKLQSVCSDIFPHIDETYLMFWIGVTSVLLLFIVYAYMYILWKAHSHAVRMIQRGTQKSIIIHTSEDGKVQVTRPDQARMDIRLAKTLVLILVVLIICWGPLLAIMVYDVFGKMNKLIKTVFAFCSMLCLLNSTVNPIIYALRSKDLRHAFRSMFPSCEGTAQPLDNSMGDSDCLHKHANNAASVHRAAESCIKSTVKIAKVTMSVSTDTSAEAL
Chain of UniProt P00691 (whole entry, looked up): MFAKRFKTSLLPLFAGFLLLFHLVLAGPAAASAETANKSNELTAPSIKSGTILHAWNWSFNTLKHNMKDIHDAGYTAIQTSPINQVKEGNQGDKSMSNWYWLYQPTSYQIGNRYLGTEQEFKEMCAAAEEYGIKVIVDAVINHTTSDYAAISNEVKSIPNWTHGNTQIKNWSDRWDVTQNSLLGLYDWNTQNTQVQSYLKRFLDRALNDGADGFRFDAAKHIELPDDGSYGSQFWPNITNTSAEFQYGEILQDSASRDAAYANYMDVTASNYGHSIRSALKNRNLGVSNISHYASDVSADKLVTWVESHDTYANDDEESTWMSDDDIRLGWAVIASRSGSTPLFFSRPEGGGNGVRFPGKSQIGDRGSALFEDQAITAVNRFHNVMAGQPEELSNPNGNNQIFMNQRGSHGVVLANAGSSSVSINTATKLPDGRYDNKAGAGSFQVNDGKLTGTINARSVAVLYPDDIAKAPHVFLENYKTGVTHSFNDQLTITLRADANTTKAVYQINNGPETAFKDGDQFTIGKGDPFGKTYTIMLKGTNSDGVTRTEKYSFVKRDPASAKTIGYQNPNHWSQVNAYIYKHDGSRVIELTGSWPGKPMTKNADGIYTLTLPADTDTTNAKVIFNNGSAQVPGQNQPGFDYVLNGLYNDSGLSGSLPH
Chain of UniProt P9WGM7 (whole entry, looked up): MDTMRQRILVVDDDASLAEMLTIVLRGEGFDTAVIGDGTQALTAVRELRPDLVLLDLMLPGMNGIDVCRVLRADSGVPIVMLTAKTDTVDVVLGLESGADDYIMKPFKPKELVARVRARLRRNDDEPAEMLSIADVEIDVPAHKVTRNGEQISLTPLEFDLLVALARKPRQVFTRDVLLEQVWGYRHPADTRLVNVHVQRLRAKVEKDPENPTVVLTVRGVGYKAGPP
Chain of UniProt P34972 (whole entry, looked up): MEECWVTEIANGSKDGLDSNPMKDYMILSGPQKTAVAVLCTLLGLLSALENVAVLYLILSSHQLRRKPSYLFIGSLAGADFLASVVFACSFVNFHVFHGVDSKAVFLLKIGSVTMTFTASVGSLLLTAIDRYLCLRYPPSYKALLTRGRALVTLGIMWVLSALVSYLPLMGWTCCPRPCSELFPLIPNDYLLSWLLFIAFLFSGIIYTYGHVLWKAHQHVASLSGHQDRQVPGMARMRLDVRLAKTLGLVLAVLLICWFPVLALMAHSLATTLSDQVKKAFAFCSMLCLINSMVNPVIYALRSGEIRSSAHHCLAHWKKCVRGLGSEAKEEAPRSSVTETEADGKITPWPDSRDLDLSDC
Chain of UniProt P08913 (whole entry, looked up): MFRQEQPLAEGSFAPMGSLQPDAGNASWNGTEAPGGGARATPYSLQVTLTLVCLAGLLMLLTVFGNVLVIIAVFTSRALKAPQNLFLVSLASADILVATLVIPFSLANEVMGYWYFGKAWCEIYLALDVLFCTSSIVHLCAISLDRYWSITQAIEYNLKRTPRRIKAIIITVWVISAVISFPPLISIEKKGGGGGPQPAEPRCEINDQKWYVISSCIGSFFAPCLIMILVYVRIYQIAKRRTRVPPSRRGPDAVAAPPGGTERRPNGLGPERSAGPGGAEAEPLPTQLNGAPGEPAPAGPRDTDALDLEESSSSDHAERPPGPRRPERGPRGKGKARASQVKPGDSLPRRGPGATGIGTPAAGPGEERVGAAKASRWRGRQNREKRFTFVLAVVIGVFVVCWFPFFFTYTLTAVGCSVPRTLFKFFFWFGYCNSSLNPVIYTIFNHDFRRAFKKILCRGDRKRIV
Chain of UniProt P26718 (whole entry, looked up): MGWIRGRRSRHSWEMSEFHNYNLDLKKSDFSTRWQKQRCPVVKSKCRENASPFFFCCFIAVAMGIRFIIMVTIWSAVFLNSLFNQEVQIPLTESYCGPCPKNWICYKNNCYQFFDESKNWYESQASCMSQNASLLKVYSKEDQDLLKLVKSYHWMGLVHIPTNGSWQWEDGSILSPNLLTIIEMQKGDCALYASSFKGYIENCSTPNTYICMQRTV

`Cc1nc(=O)c2cc(CN(C)c3ccc(C(=O)NCc4ccccn4)s3)ccc2[nH]1` gave a Hill slope of 0.9 (4'-phosphopantetheinyl transferase PptT; enzyme activity, inhibitor, fluorescence polarization).
For `CCCCCn1cc(C(=O)c2cccc3c2CC(C)(C)C3)c2ccccc21`, the Emax was 163% (CNR1 (Homo sapiens, UniProt P21554); β-arrestin recruitment, agonist, BRET; HEK-293T).
`CCOC(=O)C1C(OC(c2ccc(Cl)cc2)c2ccc(Cl)cc2)CC2CCC1N2C` (single isomer, unassigned) — result for Ki: “inactive” (ADRA2A (Homo sapiens, UniProt P08913); binding, radioligand displacement; inactive if below 75% at 10000 nM, with: [3H]MK-912).
`CC(C)C[C@H](NC(=O)[C@H](Cc1ccccc1)NC(=O)CNC(=O)CNC(=O)[C@@H](N)Cc1ccc(O)cc1)C(=O)O`: “off time constant” 24 ± 2 s (rat locus coeruleus neurons; K+ current, agonist).
For `CC(C)P(=[Se])(NP(=[Se])(C(C)C)C(C)C)C(C)C`, “number of binding sites” read 1.09 ± 0.08 (Alpha-amylase (Bacillus subtilis, UniProt P00691); fluorescence quenching; concentration not given, 310 K).
For `Cc1nc(=O)c2cc(CN(C)c3cccc(C(=O)N[C@@]4(C(=O)O)CCC[C@@H](C(=O)O)C4)c3)ccc2[nH]1`, the Hill slope was 1 (4'-phosphopantetheinyl transferase PptT; enzyme activity, inhibitor, fluorescence polarization).
`CC(C)C[C@H](NC(=O)[C@H](Cc1ccccc1)NC(=O)CNC(=O)CNC(=O)[C@@H](N)Cc1ccc(OC(C(=O)O)c2ccccc2[N+](=O)[O-])cc1)C(=O)O` (stereo partly shown) — result for “outward current amplitude”: 5.6 ± 4 pA (rat locus coeruleus neurons; K+ current, agonist; concentration not given).
The Hill slope of `Cc1nc(=O)c2cc(CN(C)c3ccc(C(=O)NCc4nsc(=O)[nH]4)s3)ccc2[nH]1` is reported as 1.4 (4'-phosphopantetheinyl transferase PptT; enzyme activity, inhibitor, fluorescence polarization).
For `O=S(=O)(O)CCOCC1CSSCC(COCCS(=O)(=O)O)SS1` (stereo not shown), the koff was 0.027 ± 0.00075 s⁻¹ (DNA-binding response regulator MtrA, C-terminal domain (mtrA, Mycobacterium tuberculosis, UniProt P9WGM7); binding, LSPR).
With `CCCCCn1cc(C(=O)c2ccc3c(c2)CC(C)(C)C3)c2ccccc21` the Emax was 88.9 ± 1.9% (CNR1 (Homo sapiens, UniProt P21554, I267L/L193I/L359V); Gαi1 engagement, agonist, BRET; reference: reference agonist at wild-type CB1).
The Hill slope of `Cc1nc(=O)c2cc(CN(C)c3ccc(C(=O)NCCCc4nn[nH]n4)s3)ccc2[nH]1` is reported as 1.2 (4'-phosphopantetheinyl transferase PptT; enzyme activity, inhibitor, fluorescence polarization).
The Emax difference of `CCCCCn1cc(C(=O)c2cccc3ccccc23)c2ccccc21` is reported as about 70% (CNR2 (Homo sapiens, UniProt P34972); Gαi1 engagement, agonist, BRET; reference: CB1 minus CB2).
With `CN(C)C(=O)[C@@H](NC(=O)c1ccccc1-c1ccc(C(F)(F)F)cc1)c1cccc(C(F)(F)F)c1` the Emax was 101% (NKG2-D type II integral membrane protein, with MICA (KLRK1, Homo sapiens, UniProt P26718)).

Excerpt of the above:
`CC(C)C[C@H](NC(=O)[C@H](Cc1ccccc1)NC(=O)CNC(=O)CNC(=O)[C@@H](N)Cc1ccc(OC(C(=O)O)c2ccccc2[N+](=O)[O-])cc1)C(=O)O` (stereo partly shown) — result for “outward current amplitude”: 5.6 ± 4 pA (rat locus coeruleus neurons; K+ current, agonist; concentration not given).
